Assay results pooled from the literature.
Parts stem from different laboratories: compare values within a part only. Substitutions count along the parent as printed.

Set 1
Target: Fragile X messenger ribonucleoprotein 1, C-terminal low-complexity region (Fmr1, Mus musculus, UniProt P35922)
Technique: RNA Bind-n-Seq
Form: RNA
Sample: in vitro
Tested at: 200 nM
Setting: whole 134-nt RNA, ends assumed
Together with: 150 mM LiCl
Baseline: input library
Reading: higher = stronger binding
Endpoint: log2 enrichment
All molecules: 7-deaza-guanosine replaces G
Constant ends, left off below: GGGAGUUCUACAGUCCGACGAUC … UGGAAUUCUCGGGUGUCAAGG
UCAAGUCCUGUGCUACACAUCGUAUGUACCGAAUCGGAAAAAGGAAAAAGGUGGAAAGUAUUAUGUUACGCCGUUCGGAUCUGCACUUCC: -0.833
UGUGCUACACAUCGUAUGUACCGAAUCGGGGCCCCCCCGGGCCCCCCCGGGGCCCCCCCGGGGAAAGUAUUAUGUUACGCCGUUCGGAUC: -1.35
CACAGACAACACGCACCCACACAGACACAGAGGGAAGGGGUUGGGAUGGGGACAGGGUGCACAGCAGGGCAAAGUAGGACCCCAGCCCCU: -0.0199
ACCAUGCACGUGGGCAUCUUUGGGAAGUGGGGCAAGGGGGGGAUAGGGAGGGGGGUAACACUUUGGGAACAGGUGGUCCCAGGUCGUUUC: 1.27
UGGCCCUGGUGGCAUGCGGGGAGGAGGAGGUGGCCUCAUGGAUCGUGGUGGUCCCGGUGGAAUGUUCAGAGGUGGCCGUGGUGGAGACAG: 0.103
UGGGAGGUGGAUUUUGUUUAUUUUUUUAGCUCAUUUCAAGGGGUGGGAAUUUUUUUUUAAUAUGUGUCAUGAAUAAAGUUGUUUUUGAAA: 1.22
CACAGACAACACGCACCCACACAGACACAGAGGGAAGGGGUUGGGAUGGGGACAGGGUGCACAGCAGGGCGGGGUAGGACCCCAGCCCCU: 0.02
CUCAAGUCCUGUGCUACACAUCGUAUGUACCGAAUCGGAAAAAGGAGGUUUGGAAAGUAUUAUGUUACGCCGUUCGGAUCUGCACUUCCA: -0.718

Set 2
Target: FOSB, bZIP domain (human)
Technique: DHFR protein complementation
Sample: yeast
Setting: single substitutions, most at no-binding floor
Baseline: wild-type JUN-FOS pair
Reading: higher = stronger binding
Endpoint: binding fitness
Parent: JUN, bZIP domain (human); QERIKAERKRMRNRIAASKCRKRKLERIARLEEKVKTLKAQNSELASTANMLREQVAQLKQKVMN; partner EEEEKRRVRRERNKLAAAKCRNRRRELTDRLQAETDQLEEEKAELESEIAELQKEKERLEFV
S43H: -0.0621 natural log
E33F: -0.42 natural log
E32W: -0.377 natural log
N42D: -1.16 natural log
S47C: -0.108 natural log
A29S: -0.124 natural log
K36S: -0.0797 natural log
S43E: -0.0074 natural log
A40E: -0.0126 natural log
T48C: -0.214 natural log
L52I: -0.473 natural log
S47L: -0.0798 natural log
R30C: -0.032 natural log
S47G: -0.102 natural log
K34L: -0.171 natural log
A46W: -0.303 natural log
S47K: 0.114 natural log
M51E: -0.103 natural log
T48G: -0.974 natural log
R53T: -0.889 natural log
T37K: -0.011 natural log
Q41H: -0.168 natural log
N42P: -1.14 natural log
E33I: -0.304 natural log
A57Y: -0.353 natural log

Set 3
Target: CCNA1, cyclin fold, Cln2 fusion (human)
Technique: yeast growth competition, sequencing
Sample: yeast
Setting: weak parent motif
Baseline: not given
Reading: higher = stronger binding
Endpoint: normalised enrichment score
Parent: WEE1 docking peptide (human); HKTFRKLRLFDTP; partner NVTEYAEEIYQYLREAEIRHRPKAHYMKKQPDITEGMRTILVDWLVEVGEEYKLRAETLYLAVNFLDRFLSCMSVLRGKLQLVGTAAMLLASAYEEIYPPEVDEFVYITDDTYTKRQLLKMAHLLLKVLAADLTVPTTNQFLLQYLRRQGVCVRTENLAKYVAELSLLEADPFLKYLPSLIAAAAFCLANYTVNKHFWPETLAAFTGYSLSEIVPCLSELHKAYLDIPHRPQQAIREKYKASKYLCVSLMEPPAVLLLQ
R5S: 0.12
F4P: 0.54
L7K: 0.382
T12H: 0.527
R5E: 0.889
R5K: -0.0847
T3I: 0.0109
H1S: 0.856
L7E: 0.449
T12Q: -0.224
T3N: -0.256
K6A: 0.0982
T12Y: -0.0142
K6W: 0.137
D11G: 0.136
K2L: 0.321
K2Y: 0.136
P13W: 0.17
D11V: 0.0023
F4M: 0.57
F10E: 0.311
P13S: 0.172
F10K: 0.339
H1W: 0.296
T12K: 0.258

Set 4
Target: Sal-like protein 4, full length isoform B (SALL4, Homo sapiens, UniProt Q9UJQ4-2, residues 1-616)
Technique: universal PBM
Form: double-stranded DNA, one strand shown
Sample: in vitro
Tested at: not given
Setting: 8-mer, flanks averaged, mean of replicates
Reading: higher = stronger binding
Endpoint: E-score
Residues (chain): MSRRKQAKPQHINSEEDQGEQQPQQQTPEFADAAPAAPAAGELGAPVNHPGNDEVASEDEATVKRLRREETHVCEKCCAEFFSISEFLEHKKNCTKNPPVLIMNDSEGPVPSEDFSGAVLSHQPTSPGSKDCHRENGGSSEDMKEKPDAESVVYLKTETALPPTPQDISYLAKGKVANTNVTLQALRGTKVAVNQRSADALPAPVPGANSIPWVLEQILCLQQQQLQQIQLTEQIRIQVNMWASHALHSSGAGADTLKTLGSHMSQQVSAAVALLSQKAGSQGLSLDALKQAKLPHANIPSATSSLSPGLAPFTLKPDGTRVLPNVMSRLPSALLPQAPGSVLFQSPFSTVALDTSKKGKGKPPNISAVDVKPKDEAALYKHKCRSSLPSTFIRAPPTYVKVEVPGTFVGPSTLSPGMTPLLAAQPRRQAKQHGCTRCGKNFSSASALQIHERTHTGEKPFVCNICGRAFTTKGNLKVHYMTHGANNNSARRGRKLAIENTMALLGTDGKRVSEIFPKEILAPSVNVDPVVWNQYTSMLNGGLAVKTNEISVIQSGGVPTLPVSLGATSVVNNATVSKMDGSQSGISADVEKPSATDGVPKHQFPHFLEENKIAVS
TCTATGCA: 0.226
GGAGAACC: -0.232
ACCTAAGA: 0
ATCCAGGC: -0.298
CGGAGTGC: -0.272
CTCCAGCC: -0.339
TATACGAA: 0.299
ACCAACGG: -0.274
ATAACAGC: 0.247
GCGATCCA: -0.143
CTCCTCCA: -0.102
GATGTAAA: 0.227
TAACCCAA: 0.0674
TCCAGGAA: -0.0521
AAGAACCG: -0.169
AAACTGGG: -0.17
AAAATCCT: 0.0483
ACGTGAGC: -0.19
AAGGTATT: 0.194
CATTACAG: 0.191

Set 5
Target: ABI1, truncated, D143A, DHFR fusion (Arabidopsis thaliana)
Technique: DHFR PCA, deep sequencing
Sample: yeast
Setting: methotrexate growth selection, single substitutions
Together with: (+)-ABA 17 µM
Baseline: wild-type fitted maximum
Reading: higher = stronger binding
Endpoint: relative binding score
Parent: PYL1, truncated, DHFR fusion (Arabidopsis thaliana); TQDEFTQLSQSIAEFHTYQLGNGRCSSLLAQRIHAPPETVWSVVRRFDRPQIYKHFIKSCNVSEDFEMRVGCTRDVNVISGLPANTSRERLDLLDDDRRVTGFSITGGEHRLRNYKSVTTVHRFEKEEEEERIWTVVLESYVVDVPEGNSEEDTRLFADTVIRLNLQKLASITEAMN; partner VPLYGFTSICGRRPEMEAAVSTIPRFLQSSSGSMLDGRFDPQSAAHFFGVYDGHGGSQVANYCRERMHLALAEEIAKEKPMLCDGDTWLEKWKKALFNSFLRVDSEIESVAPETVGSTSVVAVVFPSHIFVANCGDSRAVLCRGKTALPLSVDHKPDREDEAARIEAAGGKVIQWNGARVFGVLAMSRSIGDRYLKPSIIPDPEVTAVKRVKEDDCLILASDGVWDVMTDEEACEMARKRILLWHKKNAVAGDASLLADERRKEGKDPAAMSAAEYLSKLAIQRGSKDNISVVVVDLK
G81M: -4.24%
L156Y: 74.7%
D97Q: 92%
I12S: 6.39%
S150L: 29.4%
R88A: 66.1%
E38L: 30%
V143S: 15.9%
V100M: 70.7%
L28G: 6.11%
Q51W: 47.8%
V62H: 18.3%
D144R: 3.82%
Y18R: 57.9%
A13K: 88.3%
T73P: 5.59%
R46Y: 3.25%

A few entries again (set 5):
G81M: -4.24%
L156Y: 74.7%
D97Q: 92%
I12S: 6.39%
S150L: 29.4%
R88A: 66.1%
E38L: 30%
V143S: 15.9%
V100M: 70.7%
L28G: 6.11%
Q51W: 47.8%
V62H: 18.3%
D144R: 3.82%
Y18R: 57.9%
A13K: 88.3%
T73P: 5.59%
